Published values collected from several papers.
Each numbered part is a random draw from the data of one study; scales do not carry over between parts.

Sample 1 — method: aptamer microarray, sandwich; molecule type: DNA with 2'F-ANA; matrix: in vitro; tested at: 200 nM; with: Cy3 exosite-II aptamer, 400 nM; reading: higher = stronger binding; sequence: GGTTGGTGTGGTTGG
Target: Prothrombin, mature alpha-thrombin (F2, Homo sapiens, UniProt P00734)
Notes: whole 15-mer aptamer, many near background
Modification	mean fluorescence intensity
2'F-ANA at 2 3 5 6 7 9 10 12 13 14	52.9 a.u.
2'F-ANA at 1 2 3 6 7 10 11 12 13 15	74.8 a.u.
2'F-ANA at 2 4 5 7 9 10 11 13 14	45.9 a.u.
2'F-ANA at 1 2 6 7 8 9 11 12 13 14 15	68.3 a.u.
2'F-ANA at 4 5 6 7 9 11 12 13	67.2 a.u.
2'F-ANA at 1 3 4 8 11 13 14 15	220 a.u.
2'F-ANA at 8 10 11 12 13 14	99.6 a.u.
2'F-ANA at 2 4 7 8 12 15	708 a.u.
2'F-ANA at 1 3 4 5 8 9 10 11 12 13	58.2 a.u.
2'F-ANA at 3 4 5 6 7 8 10 15	60.2 a.u.

Sample 2 — method: protein-binding microarray; molecule type: double-stranded DNA, one strand shown; matrix: in vitro; tested at: 2200 nM top; notes: 60-bp whole probe; with: salmon DNA 0.4 mg/ml; baseline: random background probes; reading: higher = stronger binding; constant ends, left off below: GCCTAGCAC … GTCTTGATTCGCTTGACGCTGCTG
Target: Interferon regulatory factor 7, full length, phosphomimetic (IRF7, Homo sapiens, UniProt Q92985, residues 1-503, S471D/S472D/S475D/S476D/S477D/S483D/S484D/S487D)
Chain of UniProt Q92985 (whole entry, unmodified, looked up): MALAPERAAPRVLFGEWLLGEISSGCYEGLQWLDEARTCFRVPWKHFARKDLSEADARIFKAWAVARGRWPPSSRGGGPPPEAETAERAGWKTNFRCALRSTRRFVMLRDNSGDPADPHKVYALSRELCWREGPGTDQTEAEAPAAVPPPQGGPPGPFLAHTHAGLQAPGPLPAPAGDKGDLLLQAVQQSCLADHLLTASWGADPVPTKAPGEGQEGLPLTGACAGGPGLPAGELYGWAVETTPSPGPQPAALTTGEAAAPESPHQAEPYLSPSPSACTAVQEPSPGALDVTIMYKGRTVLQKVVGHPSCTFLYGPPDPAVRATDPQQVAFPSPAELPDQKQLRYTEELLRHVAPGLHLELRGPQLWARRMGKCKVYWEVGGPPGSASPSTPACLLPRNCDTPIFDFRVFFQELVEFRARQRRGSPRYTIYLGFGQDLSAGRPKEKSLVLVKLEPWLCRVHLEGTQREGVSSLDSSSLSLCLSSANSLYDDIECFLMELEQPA
Sequence	fitted relative affinity
GACGGTATCGTTATCGGGACGTGCTAG	0.247 z-score
TTACGACTGGGTTTCGGTTAGTGCTAG	4.55 z-score
CTACTTCTCTTTTTGCTTTCGTGCTAG	4.36 z-score
TTAGGTTTCGAATATCGGTTAGTGCTA	2.03 z-score
TCAAAGATTTTTATCAAACTGTGCTAG	-0.94 z-score
TTAGCACTGGGTTTCGGTTAGTGCTAG	4.06 z-score
TTAGGTCTCGGACTGGATTAGTGCTAG	0.044 z-score
TCATCTCTTATTCTAACACTGTGCTAG	1.61 z-score
GTAGTAATGAATATAATACCGTGCTAG	-0.392 z-score
TCAACTCTGGAGGTTGAGACTGTGCTA	-0.487 z-score
GCCACCGGTCTCCATGGGTCGTGCTAG	-0.0931 z-score

Sample 3 — method: universal PBM; molecule type: double-stranded DNA, one strand shown; matrix: in vitro; tested at: not given; reading: higher = stronger binding
Target: Sal-like protein 4, full length isoform B (SALL4, Homo sapiens, UniProt Q9UJQ4-2, residues 1-616)
Notes: 8-mer, flanks averaged, mean of replicates
Sequence	E-score
ACATTCGG	-0.115
CAGGATCC	-0.181
GAGAGTTA	0.0473
GTTCGAAA	0.129
TCGGGACA	-0.148
AATCGAAG	0.0469
GCCATACA	0.0675
CGTACATC	-0.135

Single results of other studies
Molecule	target	assay	test system	conditions	how to read	endpoint	value
PhoQ, residues 284 288 289 292 302 303 SLSLLA	PhoP, residues 12 14 15 18 19 LHATL (Escherichia coli, UniProt P23836)	Sort-seq, item: YFP reporter	E. coli	PhoQ-PhoP variant library, with: 10 µM Mg2+	baseline: high Mg2+ state, higher = stronger signaling	fold induction	0.936

For quick reference, copied from above (sample 1):
Modification	mean fluorescence intensity
2'F-ANA at 1 3 4 8 11 13 14 15	220 a.u.
2'F-ANA at 1 3 4 5 8 9 10 11 12 13	58.2 a.u.
2'F-ANA at 1 2 3 6 7 10 11 12 13 15	74.8 a.u.
2'F-ANA at 2 4 5 7 9 10 11 13 14	45.9 a.u.
